Measured values of several laboratories.
Lines come from different studies, so protocols differ. ± marks the error that the study gave.
Cell line: HepG2

SMILES	assay	system	conditions	how to read	endpoint	value
Cc1cscc1-c1ccc(OCCc2cccc(F)c2)c(C(N)=O)c1	–	galactose medium	3 (unit not given)	–	CC50	31 ± 4 µM
O=S(=O)(c1ccc(-c2ccc3nccc(Nc4cncs4)c3c2)cc1)N1CCOCC1	cytotoxicity, MTT	–	48 h	–	TC50	> 20 µM
[Cl][Cd][Cl]	–	–	maximum tested, 24 h	relative to: vehicle	relative survival	43%
Cc1cc(Nc2ccnc3ccc(-c4ccc(S(=O)(=O)N5CCOCC5)cc4)cc23)sn1	cytotoxicity, MTT	–	48 h	–	TC50	> 20 µM
Fc1cccc(COc2ccc(Nc3nccc4ccc(-c5cccc(N6CCOCC6)c5)cc34)cc2Cl)c1	cytotoxicity, MTT	–	48 h	–	TC50	> 15 µM
O=[N+]([O-])c1ccc(Nc2ccnc3ccc(-c4ccc(S(=O)(=O)N5CCOCC5)cc4)cc23)cn1	cytotoxicity, MTT	–	48 h	–	TC50	> 20 µM
CN1CCN(S(=O)(=O)c2ccc(-c3ccc4c(Nc5ccc(OCc6cccc(F)c6)c(Cl)c5)ccnc4c3)cc2)CC1	cytotoxicity, MTT	–	48 h	–	TC50	> 4 µM
NC(=O)c1cc(C2CC2)ccc1OCCc1cccc(F)c1	–	galactose medium	3 (unit not given)	–	CC50	44 ± 5 µM
N.N.[Cl][Pt][Cl]	–	–	maximum tested, 24 h	relative to: vehicle	relative survival	48%
CNC(=O)c1cc(C(F)F)ccc1OCCc1cccc(F)c1	–	–	3 (unit not given), human	–	CC50	73 ± 28 µM
CN1CCN(S(=O)(=O)c2ccc(-c3ccc4ccnc(Nc5ccc(OCc6cccc(F)c6)c(Cl)c5)c4c3)cc2)CC1	cytotoxicity, MTT	–	48 h	–	TC50	> 15 µM
Cc1cnc(OCCc2cccc(F)c2)c(C(N)=O)c1	–	–	3 (unit not given)	relative to: CC50 glucose over CC50 galactose	selectivity ratio	< 1
CN(C)N=O	–	–	maximum tested, 24 h	relative to: vehicle	relative survival	98%
N#Cc1cnc2ccc(-c3cccc(N4CCOCC4)c3)cc2c1Nc1ccc(OCc2cccc(F)c2)c(Cl)c1	cytotoxicity, MTT	–	48 h	–	TC50	> 15 µM
Cc1cnnc(Nc2ccnc3ccc(-c4ccc(S(=O)(=O)N5CCOCC5)cc4)cc23)c1	cytotoxicity, MTT	–	48 h	–	TC50	> 20 µM
Cc1cscc1-c1ccc(OCCc2cc(F)cc(F)c2)c(C(N)=O)c1	–	galactose medium	3 (unit not given)	–	CC50	37 ± 2 µM
COc1ccc(Nc2ccnc3ccc(-c4ccc(S(=O)(=O)N5CCOCC5)cc4)cc23)cc1Cl	cytotoxicity, MTT	–	48 h	–	TC50	> 20 µM
O=c1ccc2ccccc2o1	measured: cell count	–	24 h, ER stress panel	–	point of departure	825 µM
NC(=O)c1cc(-c2cccs2)ccc1OCCc1cccc(F)c1	–	galactose medium	3 (unit not given)	–	CC50	10 ± 1.7 µM
O=S(=O)(c1ccc(-c2ccc3nccc(Nc4cccnc4)c3c2)cc1)N1CCOCC1	cytotoxicity, MTT	–	48 h	–	TC50	> 20 µM
